Experimental data pooled from the literature.
Each line is one published result; not all experiments were run side by side. Values joined by “and” are separate records of one study, mostly repeats; a detail may differ. ± marks the error that the study gave.
cat: Chloramphenicol acetyltransferase (cat, Escherichia coli, UniProt P62577)
CYP2A6: Cytochrome P450 2A6 (CYP2A6, Homo sapiens, UniProt P11509)

For `CN[C@H]1C(=O)N[C@@H]2Cc3ccc(cc3)Oc3cc4cc(c3O[C@@H]3O[C@H](C(=O)O)[C@@H](O)[C@H](O)[C@H]3NC(=O)CCCCCCCCC(C)C)Oc3ccc(cc3Cl)[C@@H](O)[C@@H]3NC(=O)[C@H](NC(=O)[C@@H]4NC(=O)[C@@H](NC2=O)c2cc(cc(O)c2Cl)Oc2cc1ccc2O)c1ccc(O)c(c1)-c1c(O[C@H]2O[C@H](CO)[C@@H](O)[C@H](O)[C@@H]2O)cc(O)cc1[C@@H](C(=O)NCCCN(C)C)NC3=O`, the Kd was 0.043 ± 0.002 µM (Endolysin (Enterobacteria phage T4, UniProt P00720, C54T/C97A/L164A); SPR; 25 °C, immobilised T4 lysozyme fusion).
`phosphatidylserine` gave a Kd of 0.95 ± 0.57 µM (Tricalbin-1, C2C domain (TCB1, Saccharomyces cerevisiae, UniProt Q12466); surface plasmon resonance; 20 mol% lipid in DOPC; GST fusion protein, added: Ca2+).
With `OC[C@H]1OC(O)[C@H](O)[C@@H](O)[C@@H]1O` (stereo partly drawn) the Kd was 1120 ± 50 µM (hexokinase, Saccharomyces cerevisiae; differential scanning fluorimetry; pH 7.0, added: 10 mM MgCl2).
`CC[N+](CC)(CC)CC(=O)Nc1c(C)cccc1C` has a Kd of 580 µM (sodium channel (rat brain), batrachotoxin-modified; open channel block, blocker, planar lipid bilayer, single channel; high affinity open state, +60 mV).
For `CC[C@H](C)[C@H](N)C(=O)N[C@@H](CC(C)C)C(=O)N[C@@H](CCCCN)C(=O)N[C@@H](CCC(=O)O)C(=O)N1CCC[C@H]1C(=O)N[C@H](C(=O)N[C@@H](CSC1CC(=O)N(CCCCCNC(=O)c2ccc(-c3c4ccc(=N)c(S(=O)(=O)O)c-4oc4c(S(=O)(=O)O)c(N)ccc34)c(C(=O)O)c2)C1=O)C(=O)NCC(=O)N[C@H](C(=O)O)C(C)C)C(C)C` (stereo partly drawn), the Kd was 0.016 ± 0.004 µM (HLA class I histocompatibility antigen, A alpha chain, allele A*02:01 (Homo sapiens, UniProt P04439); binding, fluorescence polarization).
The Kd of `CCCCCCCC[N+](C)(C)CCO` is reported as > 2000 µM (potassium channel; steady-state block; Doryteuthis pealeii; internal application, added: membrane potential +100 mV).
`Nc1ncnc2c1ncn2[C@@H]1O[C@H](COP(=O)(O)OP(=O)(O)OP(=O)(O)O)[C@@H](O)[C@H]1O` has a Kd of 380 µM (Protein kinase 9 (Plasmodium falciparum, UniProt Q8IEG4); binding, competition on cpd-sepharose; HEK293 expressed GFP fusion).
`CCSCCNC(=O)CCNC(=O)[C@H](O)C(C)(C)COP(=O)(O)OP(=O)(O)OC[C@H]1O[C@@H](n2cnc3c(N)ncnc32)[C@H](O)[C@@H]1OP(=O)(O)O` gave a Kd of 5 ± 2 µM (cat; ligand, native ESI-MS; first ligand binding, gas phase, added: 200 mM ammonium acetate).
`CC(=O)N[C@@H](C)C(=O)N[C@@H](CC(N)=O)C(=O)NCC(=O)N[C@@H](CC(N)=O)C(=O)N[C@@H](C)C(=O)N[C@@H](CC(N)=O)C(=O)N[C@@H](CCC(=O)O)C(=O)N[C@@H](CCC(=O)O)C(=O)N[C@@H](CC(N)=O)C(=O)NCC(=O)N[C@@H](CCC(=O)O)C(=O)N[C@@H](CCC(N)=O)C(=O)N[C@@H](CCC(=O)O)C(=O)N[C@@H](C)C(=O)N[C@@H](CC(=O)O)C(=O)N[C@@H](CC(N)=O)C(=O)N[C@@H](CCC(=O)O)C(=O)N[C@H](C(=O)N[C@@H](CC(=O)O)C(N)=O)C(C)C` gave a Kd of 2.62 µM (Kelch-like ECH-associated protein 1 (KEAP1, Homo sapiens, UniProt Q14145); binding, ITC; pH 7).
`COc1cc2c(cc1OC)C13CCN4CC5=CCOC(CC(=O)O)C(C5CC41)C3N2` (stereo not drawn) gave a Kd of 0.415 µM (acetylcholine binding protein (Bulinus truncatus); binding, scintillation proximity; added: 5 nM [3H]epibatidine).
`cGMP` gave a Kd of 6.13 µM (Potassium/sodium hyperpolarization-activated cyclic nucleotide-gated channel 2, C-terminal region (Hcn2, Mus musculus, UniProt O88703); isothermal titration calorimetry; 25 °C, C-linker/CNBD tetramer, low-affinity site).
With `CC[C@H](C)[C@H](NC(=O)[C@H](CCCNC(=N)N)NC(=O)CNC(=O)[C@H](Cc1c[nH]c2ccccc12)NC(=O)[C@@H]1CSC[C@@H](NC(=O)[C@H](Cc2ccc(O)cc2)NC(=O)[C@H](Cc2c[nH]c3ccccc23)NC(=O)[C@H](CC(C)C)NC(=O)CNC(=O)[C@H](CCCNC(=N)N)NC(=O)c2ccc3c(c2)C(=O)OC32c3ccc(O)cc3Oc3cc(O)ccc32)C(=O)N[C@@H](CC(C)C)C(=O)N[C@@H](CO)C(=O)N1)C(=O)NCC(=O)N[C@@H](CCCNC(=N)N)C(=O)N[C@@H](CCCNC(=N)N)C(=O)NCCCOCCOCCOCCCNC(=O)CCC(=O)NCCCOCCOCCOCCCNC(=O)CCC(=O)NCCCOCCOCCOCCCNC(=O)CCC(=O)N[C@@H](C)C(=O)O` the Kd was > 1000 µM (srtA (Staphylococcus aureus, UniProt Q2FV99); binding, fluorescence polarization; no Ca2+, 2 mM EDTA; lower = stronger binding).
With `C=CC1=C(C)c2cc3[nH]c(cc4nc(cc5[nH]c(cc1n2)c(C)c5C=C)C(C)=C4CCC(=O)O)c(CCC(=O)O)c3C.[Fe+3]` the Kd was 0.711 ± 0.183 µM (Ferrichrome-binding lipoprotein FhuD (Listeria monocytogenes, UniProt Q8Y5U6); binding, tryptophan fluorescence quenching; His tag removed).
`CC#Cc1ccc2c(ccc3ccccc32)c1` gave a Kd of 1.6 µM (CYP2A6; binding, absorbance; pH 7.4).
`CC[N+](CC)(CCO)CCCc1ccccc1` has a Kd of 7.7 µM (potassium channel; steady-state block; Doryteuthis pealeii; internal application, added: membrane potential +100 mV).
For `[2Fe-2S](GS)4`, the Kd was 5.6 ± 0.8 µM (ATM1 (Saccharomyces cerevisiae, UniProt P40416, D398N); ATPase stimulation, activator; D398N mutant, added: MgATP).
With `CN(C)c1cccc2c(S(N)(=O)=O)cccc12` the Kd was 0.374 µM (Carbonic anhydrase 2 (CA2, Bos taurus, UniProt P00921); binding).
The Kd of `O=C(N[C@H](CO)[C@H](O)c1ccc([N+](=O)[O-])cc1)C(Cl)Cl` is reported as 90 ± 40 µM (cat; ligand, native ESI-MS; second ligand binding, gas phase, added: 200 mM ammonium acetate).
The Kd of `CCCCC/C=C\C/C=C\C/C=C\C/C=C\CCCC(=O)NCCO` is reported as 0.19 ± 0.12 µM (Fatty acid-binding protein, liver (FABP1, Homo sapiens, UniProt P07148); binding, DAUDA displacement; added: DAUDA 0.5 µM).
With `C=CC1=C(C)c2cc3[nH]c(cc4nc(cc5[nH]c(cc1n2)c(C)c5C=C)C(C)=C4CCC(=O)O)c(CCC(=O)O)c3C.[Fe+3]` the Kd was 0.066 ± 0.0179 µM (Kelch protein K13 (Plasmodium falciparum, UniProt Q8IDQ2, A578S)).
`CC(=O)N[C@H]1C(O)O[C@H](CO)[C@@H](O[C@@H]2O[C@H](CO)[C@H](O)[C@H](O)[C@H]2O)[C@@H]1O` (stereo partly drawn) has a Kd of 80 µM (Lectin (Erythrina crista-galli, UniProt P83410); BLI competition; solution Kd, added: LacNAc-biotin biosensor).
For `CC[C@H](C)[C@H](NC(=O)[C@@H]1CCCN1C(=O)[C@@H](NC(=O)[C@H](CC(=O)O)NC(=O)[C@@H](NC(=O)[C@@H](N)CC(=O)O)[C@@H](C)O)[C@@H](C)O)C(=O)N[C@H](C(=O)N[C@@H](Cc1ccc(O)cc1)C(=O)N[C@@H](CC(N)=O)C(=O)N[C@@H](CC(=O)O)C(=O)N[C@@H](CCCNC(=N)N)C(=O)N[C@@H](CC(=O)O)C(=O)N1CCC[C@H]1C(=O)N[C@@H](CC(C)C)C(=O)N[C@@H](CC(=O)O)C(=O)O)C(C)C`, the Kd was 329 µM (Heat shock 70 kDa protein 1A (HSPA1A, Homo sapiens, UniProt P0DMV8); binding, SPR; pH 7.4).
With `O=C(CCNS(=O)(=O)c1cccc2nsnc12)N1CCN(c2ccncc2)CC1` the Kd was 0.016 µM (Muscarinic acetylcholine receptor M1 (CHRM1, Homo sapiens, UniProt P11229); phosphoinositide hydrolysis, antagonist, Schild analysis; added: acetylcholine).
For `O=c1ccn([C@H]2C[C@H](O)[C@@H](COS(=O)(=O)O)O2)c(=O)[nH]1`, the Kd was 0.17 ± 0.08 µM (thyX (Thermotoga maritima, UniProt Q9WYT0)).
`O=C(CC1NCCCC1O)Cn1cnc2cc(Br)c(Cl)cc2c1=O` (stereo not drawn) gave a Kd of 0.0532 µM (Bifunctional glutamate/proline--tRNA ligase (EPRS1, Homo sapiens, UniProt P07814); binding, MST).
For `CCCn1c(=O)c2[nH]c(-c3ccc(OCC(=O)Nc4ccc(C(C)=O)cc4)cc3)nc2n(CCC)c1=O`, the Kd was 0.103 µM (Adenosine receptor A2a (ADORA2A, Homo sapiens, UniProt P29274, A54L/K122A/T88A/V239A); binding, antagonist, surface plasmon resonance; 25 °C, 1% DMSO).
`N#C[C@H](O[C@@H]1O[C@H](CO[C@@H]2O[C@H](CO)[C@@H](O)[C@H](O)[C@H]2O)[C@@H](O)[C@H](O)[C@H]1O)c1ccccc1` has a Kd of 0.221 µM (Angiotensin-converting enzyme 2 (ACE2, Homo sapiens, UniProt Q9BYF1); binding, SPR).
`CCCCCCCCCCCCCCCC(=O)N[C@@H](CC(C)C)C(=O)O` has a Kd of < 0.03 µM (Bifunctional cytochrome P450/NADPH--P450 reductase, heme domain (cyp102A1, Bacillus megaterium, UniProt P14779); substrate binding, substrate, UV-vis spectral titration; pH 7.4, room temperature, wild-type heme domain).
`CCCCCCCC[N+](CCC)(CCC)CCC` has a Kd of 28.3 µM (potassium channel; steady-state block; Doryteuthis pealeii; internal application, added: membrane potential +100 mV).
For `CC(C)C[C@H](NC(=O)[C@H](C)NC(=O)[C@H](CCCNC(=N)N)NC(=O)[C@H](CC(C)C)NC(=O)[C@H](Cc1c[nH]c2ccccc12)NC(=O)[C@@H](N)CCCNC(=N)N)C(=O)N[C@@H](CCCNC(=N)N)C(=O)N[C@@H](Cc1ccc(O)cc1)C(=O)N1CCC[C@H]1C(N)=O`, Kd read “no binding” (GNAS, GDP-bound (Homo sapiens, UniProt P63092); microscale thermophoresis).
For `CC[C@H](C)[C@H](NC(=O)[C@H](Cc1c[nH]c2ccccc12)NC(=O)[C@@H]1CSSC[C@H](NC(=O)[C@H](CCC(=O)O)NC(=O)[C@H](Cc2c[nH]c3ccccc23)NC(=O)[C@H](CCC(N)=O)NC(=O)COCCOCCNC(=O)[C@H](CCC(=O)O)NC(=O)[C@H](Cc2c[nH]cn2)NC(=O)[C@@H](N)Cc2c[nH]cn2)C(=O)N2CCC[C@H]2C(=O)N[C@@H](Cc2ccc(O)cc2)C(=O)NCC(=O)N[C@@H](CC(C)C)C(=O)N1)C(=O)N[C@@H](CCC(N)=O)C(=O)O` [technetium-99m labelled], the Kd was ~10 µM and ~10.2 µM (FGA/FGB/FGG, fibrin form (Homo sapiens, UniProt P02671+P02675+P02679); binding, radioligand competition titration; human plasma fibrin clots; 30 min, pH 7.4, 37 °C).
`Nc1ncnc2c1ncn2[C@H]1C[C@H](O)[C@@H](COP(=O)(O)OP(=O)(O)OP(=O)(O)O)O1` has a Kd of 440 ± 53 µM (matB (Rhodopseudomonas palustris, UniProt Q6ND88, C106A/K488A/Q457C/R286C); binding, fluorescence titration; pH 7.0, 20 °C).
`c1ccc(-c2ccccc2)cc1` has a Kd of 2.7 µM (CYP2A6; binding, absorbance; pH 7.4).

For quick reference, copied from above:
`Nc1ncnc2c1ncn2[C@H]1C[C@H](O)[C@@H](COP(=O)(O)OP(=O)(O)OP(=O)(O)O)O1` has a Kd of 440 ± 53 µM (matB (Rhodopseudomonas palustris, UniProt Q6ND88, C106A/K488A/Q457C/R286C); binding, fluorescence titration; pH 7.0, 20 °C).
`CC(=O)N[C@@H](C)C(=O)N[C@@H](CC(N)=O)C(=O)NCC(=O)N[C@@H](CC(N)=O)C(=O)N[C@@H](C)C(=O)N[C@@H](CC(N)=O)C(=O)N[C@@H](CCC(=O)O)C(=O)N[C@@H](CCC(=O)O)C(=O)N[C@@H](CC(N)=O)C(=O)NCC(=O)N[C@@H](CCC(=O)O)C(=O)N[C@@H](CCC(N)=O)C(=O)N[C@@H](CCC(=O)O)C(=O)N[C@@H](C)C(=O)N[C@@H](CC(=O)O)C(=O)N[C@@H](CC(N)=O)C(=O)N[C@@H](CCC(=O)O)C(=O)N[C@H](C(=O)N[C@@H](CC(=O)O)C(N)=O)C(C)C` gave a Kd of 2.62 µM (Kelch-like ECH-associated protein 1 (KEAP1, Homo sapiens, UniProt Q14145); binding, ITC; pH 7).
`CC(=O)N[C@H]1C(O)O[C@H](CO)[C@@H](O[C@@H]2O[C@H](CO)[C@H](O)[C@H](O)[C@H]2O)[C@@H]1O` (stereo partly drawn) has a Kd of 80 µM (Lectin (Erythrina crista-galli, UniProt P83410); BLI competition; solution Kd, added: LacNAc-biotin biosensor).
`phosphatidylserine` gave a Kd of 0.95 ± 0.57 µM (Tricalbin-1, C2C domain (TCB1, Saccharomyces cerevisiae, UniProt Q12466); surface plasmon resonance; 20 mol% lipid in DOPC; GST fusion protein, added: Ca2+).
`N#C[C@H](O[C@@H]1O[C@H](CO[C@@H]2O[C@H](CO)[C@@H](O)[C@H](O)[C@H]2O)[C@@H](O)[C@H](O)[C@H]1O)c1ccccc1` has a Kd of 0.221 µM (Angiotensin-converting enzyme 2 (ACE2, Homo sapiens, UniProt Q9BYF1); binding, SPR).
